Assay results from different studies.
Parts stem from different laboratories: compare values within a part only.

Series 1
Target: Interferon regulatory factor 5, full length, phosphomimetic (IRF5, Homo sapiens, UniProt Q13568-2, residues 1-514, K96S/S451D/S453D/S456D/S462D)
Technique: protein-binding microarray
Form: double-stranded DNA, one strand shown
Matrix: in vitro
Tested at: 250 nM
Notes: 60-bp whole probe
Added: salmon DNA 0.4 mg/ml
Baseline: random background probes
Reading: higher = stronger binding
Shared flanks, not repeated: GCCTAGCAC … GTCTTGATTCGCTTGACGCTGCTG
With `TTGGATTTCGGGACTGGATTAGTGCTA` the log fluorescence was 2.05 z-score.
With `TCTCTGTTCTTTTCAGTCCCGTGCTAG` the log fluorescence was 1.63 z-score.
`CTCCTCTCTGGGTCAAAGGTGTGCTAG` has a log fluorescence of -0.44 z-score.
`GACGATTCCAGTTTCCAGACGTGCTAG` has a log fluorescence of 0.26 z-score.
For `TTAGGTTTCGGTCTCAGTTAGTGCTAG`, the log fluorescence was 9.99 z-score.

Series 2
Target: Sal-like protein 4, full length isoform B (SALL4, Homo sapiens, UniProt Q9UJQ4-2, residues 1-616)
Technique: universal PBM
Form: double-stranded DNA, one strand shown
Matrix: in vitro
Tested at: not given
Notes: 8-mer, flanks averaged, mean of replicates
Reading: higher = stronger binding
With `AACGCATC` the E-score was -0.0637.
`CATCCGAC` gave an E-score of -0.159.
`AAATGGGT` has an E-score of 0.183.
For `GTAGCTAC`, the E-score was 0.0693.
For `ATTGCAGA`, the E-score was 0.205.

Series 3
Target: Histone acetyltransferase KAT6A, winged helix 1, GST fusion (KAT6A, Homo sapiens, UniProt Q92794, residues 1-85)
Technique: protein binding microarray
Form: double-stranded DNA, one strand shown
Matrix: in vitro
Tested at: not given
Notes: 8-mer, flanks averaged, mean of 2 arrays, mostly near background
Baseline: not given
Reading: higher = stronger binding
Residues (chain): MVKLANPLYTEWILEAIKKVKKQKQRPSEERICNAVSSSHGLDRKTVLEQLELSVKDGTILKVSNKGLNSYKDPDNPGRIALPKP
With `CATGAGTC` the E-score was -0.0984.
`CGACACAC` gave an E-score of -0.0412.
`ACCTGGTA` gave an E-score of -0.176.
With `AGGCGAAA` the E-score was -0.14.

Other studies, line by line
With `PhoQ, residues 284 288 289 292 302 303 QWGLFV` the fold induction was 0.615 (PhoP, residues 12 14 15 18 19 STWGI (Escherichia coli, UniProt P23836); Sort-seq, measured: YFP reporter; E. coli; PhoQ-PhoP variant library, added: 10 µM Mg2+; baseline: high Mg2+ state, higher = stronger signaling).
